# Measured values pooled from the literature.
# A part holds a random share of what one study measured.
# Chain of UniProt P61075 (whole entry, looked up): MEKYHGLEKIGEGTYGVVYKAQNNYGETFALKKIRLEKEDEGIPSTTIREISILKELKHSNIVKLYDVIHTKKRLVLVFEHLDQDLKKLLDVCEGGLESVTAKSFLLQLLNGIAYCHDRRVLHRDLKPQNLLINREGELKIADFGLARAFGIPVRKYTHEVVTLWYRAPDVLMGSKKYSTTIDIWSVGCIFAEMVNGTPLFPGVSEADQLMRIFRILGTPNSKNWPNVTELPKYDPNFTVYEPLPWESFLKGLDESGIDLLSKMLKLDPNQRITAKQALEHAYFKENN
# Chain of UniProt Q96SW2 (whole entry, looked up): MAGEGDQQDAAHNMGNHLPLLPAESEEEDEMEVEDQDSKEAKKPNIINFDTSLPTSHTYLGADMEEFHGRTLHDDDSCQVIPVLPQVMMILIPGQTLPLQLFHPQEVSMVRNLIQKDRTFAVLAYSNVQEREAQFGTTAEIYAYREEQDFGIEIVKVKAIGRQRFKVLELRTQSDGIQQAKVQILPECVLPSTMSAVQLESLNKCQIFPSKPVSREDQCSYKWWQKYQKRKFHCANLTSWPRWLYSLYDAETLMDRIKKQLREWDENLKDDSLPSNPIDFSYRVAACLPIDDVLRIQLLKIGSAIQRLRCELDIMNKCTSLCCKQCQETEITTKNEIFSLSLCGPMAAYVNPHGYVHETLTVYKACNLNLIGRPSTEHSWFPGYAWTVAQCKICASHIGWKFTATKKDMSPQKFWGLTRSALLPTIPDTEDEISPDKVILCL
# Chain of UniProt Q9UKS7 (whole entry, looked up): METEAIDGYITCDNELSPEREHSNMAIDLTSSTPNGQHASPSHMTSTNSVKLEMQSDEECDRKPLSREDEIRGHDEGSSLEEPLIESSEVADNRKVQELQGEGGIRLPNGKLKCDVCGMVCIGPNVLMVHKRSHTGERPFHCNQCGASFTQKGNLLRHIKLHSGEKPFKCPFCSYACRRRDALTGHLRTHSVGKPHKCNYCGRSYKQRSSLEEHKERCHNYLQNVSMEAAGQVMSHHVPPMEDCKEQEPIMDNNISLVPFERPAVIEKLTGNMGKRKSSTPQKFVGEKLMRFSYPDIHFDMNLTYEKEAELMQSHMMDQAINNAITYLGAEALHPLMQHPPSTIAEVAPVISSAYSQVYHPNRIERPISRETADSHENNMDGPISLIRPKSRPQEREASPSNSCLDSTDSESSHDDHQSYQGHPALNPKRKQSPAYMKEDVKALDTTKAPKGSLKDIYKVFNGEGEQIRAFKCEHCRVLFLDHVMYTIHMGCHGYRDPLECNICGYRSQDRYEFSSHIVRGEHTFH

# Series 1 — action: agonist
# Target: Beta-1 adrenergic receptor (ADRB1, Homo sapiens, UniProt P08588)
# Chain of UniProt P08588 (whole entry, looked up): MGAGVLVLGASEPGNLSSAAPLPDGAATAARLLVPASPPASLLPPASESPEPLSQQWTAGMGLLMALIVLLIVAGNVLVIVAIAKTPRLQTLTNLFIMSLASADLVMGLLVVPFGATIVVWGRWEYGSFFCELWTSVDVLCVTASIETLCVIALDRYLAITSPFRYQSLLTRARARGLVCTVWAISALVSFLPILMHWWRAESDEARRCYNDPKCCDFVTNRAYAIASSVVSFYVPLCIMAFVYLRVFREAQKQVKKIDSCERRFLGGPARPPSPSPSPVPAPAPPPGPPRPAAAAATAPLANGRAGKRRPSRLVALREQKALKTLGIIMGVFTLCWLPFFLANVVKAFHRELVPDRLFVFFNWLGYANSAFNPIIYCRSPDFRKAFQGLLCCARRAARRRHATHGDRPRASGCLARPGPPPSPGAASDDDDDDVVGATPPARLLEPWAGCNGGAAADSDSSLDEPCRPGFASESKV
Structure (SMILES),EC50 [µM]
CC[C@H](C)C(NC(=O)[C@H](CCC(=O)O)NC(=O)[C@@H](NC(C)=O)C(C)C)C(=O)N[C@@H](CC(=O)O)C(=O)Nc1ccc2c(C)cc(=O)oc2c1 (some centres unmarked),≥ 100
NCCc1c[nH]c2ccc(O)cc12,≥ 100
NCCc1cc(=O)oc2cc(O)c(Cl)cc12,≥ 100

# Mixed results
# POLQ ATPase domain: DNA polymerase theta, ATPase domain (POLQ, Homo sapiens, UniProt O75417)
# Chain of UniProt O75417 (whole entry, unmodified, looked up): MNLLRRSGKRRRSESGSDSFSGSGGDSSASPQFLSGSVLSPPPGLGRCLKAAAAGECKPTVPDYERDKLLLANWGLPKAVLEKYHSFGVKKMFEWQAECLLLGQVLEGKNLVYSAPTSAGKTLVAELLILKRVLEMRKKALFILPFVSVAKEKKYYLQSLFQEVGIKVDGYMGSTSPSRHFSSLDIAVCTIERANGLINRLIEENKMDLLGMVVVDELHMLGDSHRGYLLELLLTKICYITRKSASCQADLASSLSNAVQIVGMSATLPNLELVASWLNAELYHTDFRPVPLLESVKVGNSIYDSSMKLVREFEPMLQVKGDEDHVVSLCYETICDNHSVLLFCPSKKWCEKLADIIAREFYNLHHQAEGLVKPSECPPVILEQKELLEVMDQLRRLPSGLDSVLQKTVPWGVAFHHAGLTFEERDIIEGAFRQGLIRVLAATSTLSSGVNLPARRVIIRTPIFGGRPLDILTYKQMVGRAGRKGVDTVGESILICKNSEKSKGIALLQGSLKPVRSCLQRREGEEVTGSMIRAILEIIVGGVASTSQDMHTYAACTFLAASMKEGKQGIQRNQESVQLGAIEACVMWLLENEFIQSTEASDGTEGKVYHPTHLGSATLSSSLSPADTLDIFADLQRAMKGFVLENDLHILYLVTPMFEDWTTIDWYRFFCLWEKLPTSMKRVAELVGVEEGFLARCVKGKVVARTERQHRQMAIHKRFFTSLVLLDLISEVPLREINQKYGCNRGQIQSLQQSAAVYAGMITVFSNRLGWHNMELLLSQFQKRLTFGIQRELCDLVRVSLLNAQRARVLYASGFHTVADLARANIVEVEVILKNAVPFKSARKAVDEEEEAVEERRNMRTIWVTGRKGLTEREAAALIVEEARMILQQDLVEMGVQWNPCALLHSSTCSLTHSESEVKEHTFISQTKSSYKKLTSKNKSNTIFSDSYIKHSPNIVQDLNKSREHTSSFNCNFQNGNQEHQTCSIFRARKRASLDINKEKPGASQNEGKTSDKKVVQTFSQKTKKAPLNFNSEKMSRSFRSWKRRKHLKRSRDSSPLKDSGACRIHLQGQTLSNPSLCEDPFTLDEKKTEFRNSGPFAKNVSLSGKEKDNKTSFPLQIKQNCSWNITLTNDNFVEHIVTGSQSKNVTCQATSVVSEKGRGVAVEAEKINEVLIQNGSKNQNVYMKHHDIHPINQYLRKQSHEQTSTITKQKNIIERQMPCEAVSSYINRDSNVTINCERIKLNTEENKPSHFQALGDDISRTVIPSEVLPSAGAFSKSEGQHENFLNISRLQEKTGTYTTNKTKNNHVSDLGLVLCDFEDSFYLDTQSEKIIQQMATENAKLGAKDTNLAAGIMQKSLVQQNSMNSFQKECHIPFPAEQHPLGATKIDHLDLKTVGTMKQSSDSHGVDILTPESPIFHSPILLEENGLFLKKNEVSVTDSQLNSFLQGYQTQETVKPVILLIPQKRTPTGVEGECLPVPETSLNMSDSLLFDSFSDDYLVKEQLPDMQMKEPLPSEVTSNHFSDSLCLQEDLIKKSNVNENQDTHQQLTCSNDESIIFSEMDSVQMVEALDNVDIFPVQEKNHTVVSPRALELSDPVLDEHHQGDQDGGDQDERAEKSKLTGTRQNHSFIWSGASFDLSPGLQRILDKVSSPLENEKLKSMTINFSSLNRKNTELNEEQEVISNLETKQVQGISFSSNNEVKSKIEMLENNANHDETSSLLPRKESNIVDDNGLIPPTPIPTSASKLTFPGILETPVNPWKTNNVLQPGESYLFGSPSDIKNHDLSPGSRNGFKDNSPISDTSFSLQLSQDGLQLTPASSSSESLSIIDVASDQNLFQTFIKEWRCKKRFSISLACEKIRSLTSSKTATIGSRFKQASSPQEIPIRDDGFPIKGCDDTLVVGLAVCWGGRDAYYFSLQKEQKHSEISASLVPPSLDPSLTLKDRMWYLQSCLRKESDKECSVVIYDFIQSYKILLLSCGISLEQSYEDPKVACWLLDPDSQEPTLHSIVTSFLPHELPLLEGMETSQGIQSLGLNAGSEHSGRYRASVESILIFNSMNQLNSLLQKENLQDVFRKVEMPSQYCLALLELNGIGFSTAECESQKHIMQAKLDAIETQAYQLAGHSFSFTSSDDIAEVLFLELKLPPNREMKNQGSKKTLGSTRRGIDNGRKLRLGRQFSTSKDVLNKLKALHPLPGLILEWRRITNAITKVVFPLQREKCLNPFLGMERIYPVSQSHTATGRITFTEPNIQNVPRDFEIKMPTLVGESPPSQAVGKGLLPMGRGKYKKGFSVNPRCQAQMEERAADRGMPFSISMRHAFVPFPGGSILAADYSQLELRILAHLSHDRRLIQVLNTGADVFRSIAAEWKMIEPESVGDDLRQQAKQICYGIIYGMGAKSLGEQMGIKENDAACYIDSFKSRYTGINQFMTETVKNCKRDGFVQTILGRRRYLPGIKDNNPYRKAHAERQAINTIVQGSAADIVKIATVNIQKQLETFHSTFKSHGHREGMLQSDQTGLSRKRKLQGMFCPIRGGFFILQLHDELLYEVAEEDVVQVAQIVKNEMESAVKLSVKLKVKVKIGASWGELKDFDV
Compound,target,assay,test system,setting,how to read,endpoint,result
CCC1(C2=NCCN2)Cc2ccccc2O1 (centres unmarked),POLQ ATPase domain,"enzyme activity, inhibitor",,77 µM,relative to: untreated,remaining activity,100%
C[C@@H]1C[C@H](C)C[C@H](C)[C@@H](O)CC(=O)O[C@H]([C@@H]2CCC[C@H]2C(=O)O)C/C=C/C=C(/C#N)[C@H](O)[C@@H](C)C1,"Bromodomain-containing protein 4, BD1 (BRD4, Homo sapiens, UniProt O60885)",,,50 µM,,inhibition,12.6%
O=C1CCC(N2Cc3c(ccc4c3OCC43CCN(Cc4ccccc4)CC3(F)F)C2=O)C(=O)N1 (centres unmarked),"CRBN/Zinc finger protein Helios (Homo sapiens, UniProt Q96SW2+Q9UKS7)","degrader, HiBiT",HEK293,13.72 nM,,protein remaining,90.2%
CC(C)c1c(CN(C)C(C)Cc2ccccc2)n(C)n(-c2ccccc2)c1=O (centres unmarked),POLQ ATPase domain,"enzyme activity, inhibitor",,77 µM,relative to: untreated,remaining activity,99.8%
C[C@H](c1cccc(C#N)c1)n1cc(Cl)cc(C(N)=O)c1=N,"CRK2 (Plasmodium falciparum, UniProt P61075)","cell-free assay, competition with immobilised ligand",,1 µM,,remaining binding,100%

# A few entries again (mixed results):
Compound,target,assay,test system,setting,how to read,endpoint,result
CCC1(C2=NCCN2)Cc2ccccc2O1 (centres unmarked),POLQ ATPase domain,"enzyme activity, inhibitor",,77 µM,relative to: untreated,remaining activity,100%
